# Measurements pooled from the literature.
# Numbers after ± are the reported error.
# UniProt Q9NPD5, sequence (whole entry, unmodified, looked up): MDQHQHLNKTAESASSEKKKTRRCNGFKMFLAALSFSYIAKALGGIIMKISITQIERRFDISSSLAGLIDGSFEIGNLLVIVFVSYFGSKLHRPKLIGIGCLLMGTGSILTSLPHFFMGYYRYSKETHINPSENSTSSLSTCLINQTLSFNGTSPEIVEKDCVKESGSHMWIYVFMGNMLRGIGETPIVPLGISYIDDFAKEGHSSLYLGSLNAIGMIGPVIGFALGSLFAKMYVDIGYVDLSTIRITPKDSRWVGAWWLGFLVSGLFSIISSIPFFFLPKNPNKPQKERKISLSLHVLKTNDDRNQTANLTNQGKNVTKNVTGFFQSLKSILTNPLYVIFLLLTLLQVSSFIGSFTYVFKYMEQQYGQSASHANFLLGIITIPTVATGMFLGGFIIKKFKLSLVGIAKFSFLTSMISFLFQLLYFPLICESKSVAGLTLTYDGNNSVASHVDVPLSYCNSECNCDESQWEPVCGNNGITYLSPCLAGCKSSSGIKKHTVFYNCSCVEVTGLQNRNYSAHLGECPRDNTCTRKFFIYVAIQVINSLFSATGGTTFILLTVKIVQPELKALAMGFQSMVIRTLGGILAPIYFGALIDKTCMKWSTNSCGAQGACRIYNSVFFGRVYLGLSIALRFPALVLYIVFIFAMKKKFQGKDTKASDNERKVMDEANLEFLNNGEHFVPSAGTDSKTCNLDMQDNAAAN
SMILES,tested on,test,system,setting,how to read,quantity,value
CN(C(=O)C(C)(C)c1cc(C(F)(F)F)cc(C(F)(F)F)c1)c1cnc(N2C[C@H]3COCCN3C[C@H]2CO)cc1-c1ccc(F)cc1[14CH3],human hepatocytes,substrate,,added: cobicistat 5 µM,,fraction metabolized,~88%
CNCCOC12CC3(C)CC(C)(CC(Cn4ncc(-c5ccc(N6CCc7cccc(C(=O)Nc8nc9ccccc9s8)c7C6)nc5C(=O)O)c4C)(C3)C1)C2,,,anaesthetised male beagle dogs,"intravenous bolus, 0.03 mg/kg, 75 min",baseline: baseline,cardiac output change,-23%
CC(C)n1c(/C=C/C(O)CC(O)CC(=O)O)c(-c2ccc(F)cc2)c2ccccc21 (centres unmarked),"SLCO1B3 (Homo sapiens, UniProt Q9NPD5, S112A)","uptake, substrate",HEK293-A stably expressing SLCO1B3,2 min,,Vmax,1240 ± 481 pmol/mg protein/min
Cc1c(-c2ccc(N3CCc4cccc(C(=O)Nc5nc6ccccc6s5)c4C3)nc2C(=O)O)cnn1CC12CC3(C)CC(C)(C1)CC(OCCNCC[C@H](O)CO)(C3)C2,,,"beagle dog, male, anaesthetised","intravenous infusion, 0.3 mg/kg/min, 120 min",baseline: vehicle,dP/dt at 50 change,-35%
CCc1cc(C(=O)NC)c2nccc(N3CCc4c(cc(Cn5ccnc5)cc4-c4cn(C)nc4C(F)(F)F)C3=O)c2c1,,,Sprague Dawley rats,"oral, 100 mg/kg once daily, 7 days",,serum DBIL level,0.7 ± 0.13 µmol/L
CC[C@H](C)C(=O)N1CCC(NC(=O)Nc2ccc(OC(F)(F)F)c(F)c2)CC1,Caco-2,Caco-2 permeability,,"10 µM, 60 min, pH 7.4 apical, 7.4 basolateral, replicate 1, added: verapamil",basolateral to apical,percent recovery,99%
CNC(=O)c1ccc(-c2cnc3ncc(Cc4ccc5ncccc5c4)n3n2)cc1F,,measured: Constipation,hepatocellular carcinoma patients,"oral, 600 mg twice daily, expansion cohort, grade 3-4",,patients with adverse event,0%
CCCC(=O)OCSc1ccccc1C(=O)NCCn1ccc(=O)c2cc(OC)ccc21,CEM-SS,"cell viability, XTT",RPMI with 10% FBS,6 days,,TC50,55 ± 4.75 µM
Cc1cc(Nc2ccc(S(F)(F)(F)(F)F)cc2)n2nc(C(C)(F)F)nc2n1,Plasmodium falciparum,,P. falciparum malaria patients,"oral, 250 mg",,patients with abdominal pain,9.1%
CCCC(=O)OCSc1ccccc1C(=O)NCCn1cc(C(=O)NN2CCN(C)CC2)c(=O)c2cc3c(cc21)OCO3,CEM-SS,"cell viability, XTT",RPMI with 10% FBS,6 days,,TC50,> 100 µM
O=C(Nc1nc2cccc(-c3ccc(CN4CCS(=O)(=O)CC4)cc3)n2n1)C1CC1,,measured: cystitis,human rheumatoid arthritis patients,"oral, 75 mg once daily, 4 weeks, regardless of relatedness",,treatment-emergent adverse events,0%

# Some of these lines once more:
SMILES,tested on,test,system,setting,how to read,quantity,value
CC[C@H](C)C(=O)N1CCC(NC(=O)Nc2ccc(OC(F)(F)F)c(F)c2)CC1,Caco-2,Caco-2 permeability,,"10 µM, 60 min, pH 7.4 apical, 7.4 basolateral, replicate 1, added: verapamil",basolateral to apical,percent recovery,99%
